Measurements gathered from unrelated publications.
Lines come from different studies, so protocols differ.
PFF0160c: Dihydroorotate dehydrogenase (quinone), mitochondrial (PFF0160c, Plasmodium falciparum, UniProt Q08210)
Chain of UniProt Q08210 (whole entry, looked up): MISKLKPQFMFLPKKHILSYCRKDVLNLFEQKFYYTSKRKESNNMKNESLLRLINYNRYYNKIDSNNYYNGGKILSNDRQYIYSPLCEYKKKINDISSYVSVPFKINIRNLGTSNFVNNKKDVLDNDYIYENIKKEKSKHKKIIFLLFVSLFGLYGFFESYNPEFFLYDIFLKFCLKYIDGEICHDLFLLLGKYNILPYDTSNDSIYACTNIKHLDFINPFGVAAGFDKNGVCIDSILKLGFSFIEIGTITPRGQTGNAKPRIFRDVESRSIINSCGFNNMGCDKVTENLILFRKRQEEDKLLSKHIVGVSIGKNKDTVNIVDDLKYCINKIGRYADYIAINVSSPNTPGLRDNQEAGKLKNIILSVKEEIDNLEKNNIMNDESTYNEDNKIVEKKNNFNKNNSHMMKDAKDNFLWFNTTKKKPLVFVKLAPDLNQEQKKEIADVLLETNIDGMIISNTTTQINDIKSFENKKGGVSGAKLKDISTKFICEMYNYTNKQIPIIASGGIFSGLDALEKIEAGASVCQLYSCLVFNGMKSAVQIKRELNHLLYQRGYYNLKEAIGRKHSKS
Chain of UniProt Q7L7X3 (whole entry, looked up): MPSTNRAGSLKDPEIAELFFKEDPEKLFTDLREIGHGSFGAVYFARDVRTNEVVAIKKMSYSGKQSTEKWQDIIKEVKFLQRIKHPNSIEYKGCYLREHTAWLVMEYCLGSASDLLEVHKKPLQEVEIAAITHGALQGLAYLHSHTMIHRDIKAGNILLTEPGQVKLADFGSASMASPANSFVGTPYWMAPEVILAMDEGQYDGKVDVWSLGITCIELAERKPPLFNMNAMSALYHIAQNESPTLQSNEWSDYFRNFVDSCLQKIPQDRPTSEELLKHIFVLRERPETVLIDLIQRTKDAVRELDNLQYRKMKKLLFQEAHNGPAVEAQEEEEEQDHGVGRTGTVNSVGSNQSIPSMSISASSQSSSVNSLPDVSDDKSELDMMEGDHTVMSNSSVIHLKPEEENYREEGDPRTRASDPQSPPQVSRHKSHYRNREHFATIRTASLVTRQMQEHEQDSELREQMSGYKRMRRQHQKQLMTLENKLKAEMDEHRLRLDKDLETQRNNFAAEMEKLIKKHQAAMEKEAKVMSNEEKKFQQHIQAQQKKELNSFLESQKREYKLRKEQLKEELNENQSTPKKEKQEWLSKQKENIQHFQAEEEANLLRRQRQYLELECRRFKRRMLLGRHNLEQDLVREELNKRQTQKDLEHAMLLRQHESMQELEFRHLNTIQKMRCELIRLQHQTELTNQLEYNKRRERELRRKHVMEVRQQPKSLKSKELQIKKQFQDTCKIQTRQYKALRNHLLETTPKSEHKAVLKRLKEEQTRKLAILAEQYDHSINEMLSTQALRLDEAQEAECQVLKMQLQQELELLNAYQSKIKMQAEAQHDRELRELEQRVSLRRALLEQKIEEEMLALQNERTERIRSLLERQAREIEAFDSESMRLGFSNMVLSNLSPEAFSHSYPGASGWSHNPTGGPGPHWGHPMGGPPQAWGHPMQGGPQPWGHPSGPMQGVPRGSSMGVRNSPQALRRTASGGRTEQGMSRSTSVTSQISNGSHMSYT
Chain of UniProt O75795 (whole entry, looked up): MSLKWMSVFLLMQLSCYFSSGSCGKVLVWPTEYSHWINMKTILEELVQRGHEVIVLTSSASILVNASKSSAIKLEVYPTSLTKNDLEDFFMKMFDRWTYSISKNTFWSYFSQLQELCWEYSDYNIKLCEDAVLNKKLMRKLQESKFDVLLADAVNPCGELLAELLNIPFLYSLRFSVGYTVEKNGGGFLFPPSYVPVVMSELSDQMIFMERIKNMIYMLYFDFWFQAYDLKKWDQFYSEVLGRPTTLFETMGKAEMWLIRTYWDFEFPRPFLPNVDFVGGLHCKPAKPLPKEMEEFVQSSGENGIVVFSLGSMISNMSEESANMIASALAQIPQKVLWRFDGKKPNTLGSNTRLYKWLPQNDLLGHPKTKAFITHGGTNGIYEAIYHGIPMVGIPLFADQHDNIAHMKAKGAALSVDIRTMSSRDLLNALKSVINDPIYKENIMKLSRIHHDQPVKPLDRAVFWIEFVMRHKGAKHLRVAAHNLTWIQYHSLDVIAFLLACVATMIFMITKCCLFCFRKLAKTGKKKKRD
Chain of UniProt Q12809 (whole entry, looked up): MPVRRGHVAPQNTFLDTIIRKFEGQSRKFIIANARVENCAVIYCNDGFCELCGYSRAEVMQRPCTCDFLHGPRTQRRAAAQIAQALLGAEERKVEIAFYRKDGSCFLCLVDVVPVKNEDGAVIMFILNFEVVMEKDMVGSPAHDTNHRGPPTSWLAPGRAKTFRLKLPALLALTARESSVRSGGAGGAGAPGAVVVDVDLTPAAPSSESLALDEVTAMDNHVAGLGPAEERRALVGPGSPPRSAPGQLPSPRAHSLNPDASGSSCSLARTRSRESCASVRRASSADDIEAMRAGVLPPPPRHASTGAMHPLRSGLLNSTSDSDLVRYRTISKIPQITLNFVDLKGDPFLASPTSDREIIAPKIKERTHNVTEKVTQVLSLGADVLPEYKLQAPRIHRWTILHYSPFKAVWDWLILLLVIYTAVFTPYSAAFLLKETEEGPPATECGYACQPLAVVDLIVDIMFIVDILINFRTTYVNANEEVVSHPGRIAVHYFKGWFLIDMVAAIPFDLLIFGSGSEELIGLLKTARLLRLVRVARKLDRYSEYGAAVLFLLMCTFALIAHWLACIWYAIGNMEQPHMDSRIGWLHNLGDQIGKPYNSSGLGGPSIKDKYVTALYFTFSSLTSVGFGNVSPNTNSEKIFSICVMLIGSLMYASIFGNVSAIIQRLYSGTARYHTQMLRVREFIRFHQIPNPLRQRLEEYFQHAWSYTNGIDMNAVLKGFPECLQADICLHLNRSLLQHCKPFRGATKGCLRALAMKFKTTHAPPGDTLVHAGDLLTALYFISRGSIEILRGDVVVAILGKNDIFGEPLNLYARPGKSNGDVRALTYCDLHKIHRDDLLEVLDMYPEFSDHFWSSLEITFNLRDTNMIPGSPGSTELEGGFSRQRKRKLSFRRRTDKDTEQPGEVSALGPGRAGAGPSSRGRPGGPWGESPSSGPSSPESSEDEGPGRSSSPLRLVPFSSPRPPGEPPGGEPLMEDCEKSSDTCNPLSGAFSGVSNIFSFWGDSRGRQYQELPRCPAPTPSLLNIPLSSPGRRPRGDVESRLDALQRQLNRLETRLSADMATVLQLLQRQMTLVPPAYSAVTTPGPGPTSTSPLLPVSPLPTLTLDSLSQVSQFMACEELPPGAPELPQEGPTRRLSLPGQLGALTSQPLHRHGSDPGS

| SMILES | tested on | assay | test system | conditions | quantity | value |
| --- | --- | --- | --- | --- | --- | --- |
| O=C(O)c1cn(Cc2ccc(F)cc2)c2ccccc12 | UDP-glucuronosyltransferase 2B17 (UGT2B17, Homo sapiens, UniProt O75795) | enzyme activity, substrate |  |  | Km | 104 µM |
| CC(C)CC(=O)OC[C@H]1O[C@@](C#N)(c2ccc3c(N)ncnn23)[C@H](O)[C@@H]1O | Voltage-gated inwardly rectifying potassium channel KCNH2 (KCNH2, Homo sapiens, UniProt Q12809) | ion current, inhibitor, patch clamp | HEK293 | 30 µM | inhibition | < 50% |
| Nc1c2c(nc3c1C(c1cccc([N+](=O)[O-])c1)c1ccc(OCC(=O)c4ccc(Cl)cc4)cc1O3)CCCC2 (stereo not drawn) | SH-SY5Y | cell growth or viability, MTT |  | 0.4 µM | viability | 89.5% |
| Cc1ncc2n1-c1ccc(Cl)cc1C(c1ccccc1F)=NC2 |  |  | human, hepatocytes | 4 h, pH 7.4 | fraction unbound | 1 |
| C[C@]12CC[C@H]3[C@@H](CC=C4CC(O)CC[C@@]43CO)[C@@H]1CCC2O (stereo partly drawn) |  |  | rat, plasma | intraperitoneal, 10 mg/kg | AUC | 1100 ng·h/mL |
| COc1ccc([C@@]23Oc4cc(OC)cc(OC)c4[C@@]24NC(C)=N[C@@]4(O)[C@H](C(=O)N(C)OC)[C@H]3c2ccccc2)cc1 |  | metabolic stability | mouse, liver microsomes |  | microsomal CLint | 272 µL/min/mg |
| Cc1nc(Nc2ccc(C)c(Cl)c2)c2c(C)noc2n1 | PFF0160c | enzyme activity, inhibitor, absorbance |  |  | IC50 | 267 nM |
| CC(C)C[C@H](NC(=O)[C@H](Cc1ccccc1)NC(=O)[C@H](Cc1ccccc1)NC(=O)Cc1ccc(-c2ccccc2)cc1)C(=O)N[C@@H](CCCCN)C(=O)N[C@@H](CCCNC(=N)N)C(=O)N[C@H](C(=O)N[C@@H](Cc1c[nH]c2ccccc12)C(=O)N[C@@H](CCCCN)C(=O)N[C@@H](CCCNC(=N)N)C(=O)O)C(C)C |  | metabolic stability, mass spectrometry | human, liver microsomes | 1 h | compound remaining | 13.3% |
| Cc1ccc(S(=O)(=O)Oc2ccc3c(c2)Oc2nc4c(c(N)c2C3c2ccc(Cl)c(Cl)c2)CCCC4)cc1 (stereo not drawn) | SH-SY5Y | cell growth or viability, MTT |  | 1.6 µM | viability | 80.5% |
| Cn1cc(-c2ccc(-n3ccc(OCc4ccc(Cl)cn4)cc3=O)cn2)cn1 | PFF0160c | enzyme activity, inhibitor, absorbance |  |  | IC50 | 13400 nM |
| [2H]c1c([2H])c([C@]2([2H])CCCN2C(=O)C(C)(C)Oc2ccc3cn[nH]c3c2)c([2H])c([2H])c1C([2H])([2H])[2H] | Serine/threonine-protein kinase TAO1 (TAOK1, Homo sapiens, UniProt Q7L7X3) | binding, competition with immobilised ligand |  | 1 µM | remaining binding | 98% |
| Nc1c2c(nc3c1C(c1ccc(Cl)c(Cl)c1)c1ccc(OCC(=O)c4ccc(Cl)cc4)cc1O3)CCCC2 (stereo not drawn) | SH-SY5Y | cell growth or viability, MTT |  | 1.6 µM | viability | 82% |
| CC[C@H](C)CCCCC(=O)N[C@@H](CCN)C(=O)N[C@H](C(=O)N[C@@H](CCN)C(=O)N[C@H]1CCNC(=O)[C@H]([C@@H](C)O)NC(=O)[C@H](CCN)NC(=O)[C@H](CCN)NC(=O)[C@H](CC(C)C)NC(=O)[C@@H](CC(C)C)NC(=O)[C@H](CCN)NC1=O)[C@@H](C)O |  |  | male Sprague-Dawley rat, plasma | subcutaneous, 10 mg/kg | bioavailability | 90% |
| COc1ccc(S(=O)(=O)Oc2ccc3c(c2)Oc2nc4c(c(N)c2C3c2cccc(OC)c2)CCCC4)cc1 (stereo not drawn) | SH-SY5Y | cell growth or viability, MTT |  | 0.4 µM | viability | 98.1% |
| C[N+]1=C2C=C(N)C(=O)c3[nH]cc(c32)CC1 | HeLa | cell growth or viability, MTT |  | 72 h | CC50 | 1000 nM |

A few entries again:
| SMILES | tested on | assay | test system | conditions | quantity | value |
| --- | --- | --- | --- | --- | --- | --- |
| O=C(O)c1cn(Cc2ccc(F)cc2)c2ccccc12 | UDP-glucuronosyltransferase 2B17 (UGT2B17, Homo sapiens, UniProt O75795) | enzyme activity, substrate |  |  | Km | 104 µM |
| CC(C)CC(=O)OC[C@H]1O[C@@](C#N)(c2ccc3c(N)ncnn23)[C@H](O)[C@@H]1O | Voltage-gated inwardly rectifying potassium channel KCNH2 (KCNH2, Homo sapiens, UniProt Q12809) | ion current, inhibitor, patch clamp | HEK293 | 30 µM | inhibition | < 50% |
| Nc1c2c(nc3c1C(c1cccc([N+](=O)[O-])c1)c1ccc(OCC(=O)c4ccc(Cl)cc4)cc1O3)CCCC2 (stereo not drawn) | SH-SY5Y | cell growth or viability, MTT |  | 0.4 µM | viability | 89.5% |
